# Assay results collected from several papers.
# Each numbered part is a random draw from the data of one study; scales do not carry over between parts.

# Set 1
# Target: Histone acetyltransferase KAT6A, winged helix 1, GST fusion (KAT6A, Homo sapiens, UniProt Q92794, residues 1-85)
# Technique: protein binding microarray
# Molecule type: double-stranded DNA, one strand shown
# Matrix: in vitro
# Concentration: not given
# Notes: 8-mer, flanks averaged, mean of 2 arrays, mostly near background
# Baseline: not given
# Reading: higher = stronger binding
# Residues (chain): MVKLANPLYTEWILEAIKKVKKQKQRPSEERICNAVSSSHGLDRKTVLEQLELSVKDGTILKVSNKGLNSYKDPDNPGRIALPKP
Oligonucleotide,E-score
CTACGGAG,0.167
CTGCACAG,0.0122
GGACAGGA,-0.13
ACACCCTC,-0.107
AAGCAGCG,0.0837
AGGGTGAC,-0.0783
CCCCGCTC,0.255
TCGCGTAA,0.292
CCTGTGCC,-0.0522

# Set 2
# Target: Sal-like protein 4, full length isoform B (SALL4, Homo sapiens, UniProt Q9UJQ4-2, residues 1-616)
# Technique: universal PBM
# Molecule type: double-stranded DNA, one strand shown
# Matrix: in vitro
# Concentration: not given
# Notes: 8-mer, flanks averaged, mean of replicates
# Reading: higher = stronger binding
# Construct (chain): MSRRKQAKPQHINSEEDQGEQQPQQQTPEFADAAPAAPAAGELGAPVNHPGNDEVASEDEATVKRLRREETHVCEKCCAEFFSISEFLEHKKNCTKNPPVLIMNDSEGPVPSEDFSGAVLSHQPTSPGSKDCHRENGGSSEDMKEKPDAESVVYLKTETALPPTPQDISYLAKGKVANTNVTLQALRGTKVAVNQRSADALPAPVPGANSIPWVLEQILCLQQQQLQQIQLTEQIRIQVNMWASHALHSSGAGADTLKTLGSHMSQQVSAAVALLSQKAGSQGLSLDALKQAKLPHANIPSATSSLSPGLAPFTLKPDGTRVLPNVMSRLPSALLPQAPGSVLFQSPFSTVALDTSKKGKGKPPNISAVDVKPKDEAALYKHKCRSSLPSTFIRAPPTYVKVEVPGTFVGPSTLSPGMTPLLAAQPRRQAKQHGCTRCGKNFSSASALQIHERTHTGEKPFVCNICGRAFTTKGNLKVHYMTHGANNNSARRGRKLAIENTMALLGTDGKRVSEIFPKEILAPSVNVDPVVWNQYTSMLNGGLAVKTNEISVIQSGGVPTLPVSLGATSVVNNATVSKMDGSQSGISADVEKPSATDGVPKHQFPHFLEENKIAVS
Oligonucleotide,E-score
ACCCCAGC,-0.138
AGACAAAC,0.106
GACCGTGC,-0.279
ATTAGGGA,0.195
AGAGGGTA,-0.0531
CAGCGAGG,-0.216

# Set 3
# Target: Interferon regulatory factor 7, full length, phosphomimetic (IRF7, Homo sapiens, UniProt Q92985, residues 1-503, S101K/S471D/S472D/S475D/S476D/S477D/S483D/S484D/S487D)
# Sequence of UniProt Q92985 (whole entry, unmodified, looked up): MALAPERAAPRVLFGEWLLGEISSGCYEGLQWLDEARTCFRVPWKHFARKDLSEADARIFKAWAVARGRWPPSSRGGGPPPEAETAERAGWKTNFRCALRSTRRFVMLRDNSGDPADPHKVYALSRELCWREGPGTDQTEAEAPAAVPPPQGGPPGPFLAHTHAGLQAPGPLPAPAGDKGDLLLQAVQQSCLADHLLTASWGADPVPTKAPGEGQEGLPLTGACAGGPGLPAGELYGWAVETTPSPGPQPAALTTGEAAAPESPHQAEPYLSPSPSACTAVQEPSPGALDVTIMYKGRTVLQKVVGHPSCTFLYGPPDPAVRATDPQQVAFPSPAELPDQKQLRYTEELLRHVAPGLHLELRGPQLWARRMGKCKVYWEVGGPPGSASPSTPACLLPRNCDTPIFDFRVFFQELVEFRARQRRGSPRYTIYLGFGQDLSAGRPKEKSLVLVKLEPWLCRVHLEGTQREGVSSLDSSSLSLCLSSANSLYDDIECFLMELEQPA
# Technique: protein-binding microarray
# Molecule type: double-stranded DNA, one strand shown
# Matrix: in vitro
# Concentration: 250 nM
# Notes: 60-bp whole probe
# Together with: salmon DNA 0.4 mg/ml
# Baseline: random background probes
# Reading: higher = stronger binding
Oligonucleotide,log fluorescence
GCCTAGCACTCACCTTTGCCTCATCTTACTGTGCTAGTCTTGATTCGCTTGACGCTGCTG,0.623 z-score
GCCTAGCACTTAGTTTTCAATTTTTGCATGTGCTAGGTCTTGATTCGCTTGACGCTGCTG,0.846 z-score
GCCTAGCACTTCGGTATCGGTCTCGGTTAGTGCTAGGTCTTGATTCGCTTGACGCTGCTG,2.21 z-score
GCCTAGCACGACGATTTCAGTTACGAGACGTGCTAGGTCTTGATTCGCTTGACGCTGCTG,0.499 z-score

# Further values, each from its own experiment
Substance,target,assay,test system,setting,how to read,quantity,value
"PhoQ, residues 284 288 289 292 302 303 SSYNSA","PhoP, residues 12 14 15 18 19 VQGLL (Escherichia coli, UniProt P23836)","Sort-seq, measured: YFP reporter",E. coli,"PhoQ-PhoP variant library, together with: 10 µM Mg2+","baseline: high Mg2+ state, higher = stronger signaling",fold induction,3.09

# Repeated from above (set 1):
Oligonucleotide,E-score
ACACCCTC,-0.107
AAGCAGCG,0.0837
